Measurements from different studies.
Protocols differ between the studies behind these lines. ± gives the spread as reported.
PLG: Plasminogen (PLG, Homo sapiens, UniProt P00747)
USP51: Ubiquitin carboxyl-terminal hydrolase 51 (USP51, Homo sapiens, UniProt Q70EK9)
PTGS1: Prostaglandin G/H synthase 1 (PTGS1, Ovis aries, UniProt P05979)
Adhesin FmlH lectin domain: Adhesin FmlH, lectin domain (Escherichia coli, UniProt Q1RBS0)
MAL12: Alpha-glucosidase MAL12 (MAL12, Saccharomyces cerevisiae S288c, UniProt P53341)

`C[C@H](NC(=O)[C@H](CC(=O)NCC(C)(C)C)NC(=O)C(=O)c1c[nH]c2ccccc12)C(=O)NCc1ccc(F)cc1F` gave an inhibition of 5% (PLG; enzyme activity, inhibitor; 100 µM).
`CCCc1cc(C2CCCN2C(=O)c2cc(-c3ccc(OC)c(OC)c3)on2)no1` (stereo not drawn) gave an inhibition of 26.3 ± 9.2% (USP51; enzyme activity, inhibitor; 1 µM).
For `Cn1ccc2cc(-n3c(=O)[nH]c4sc5c(c4c3=O)CCCC5)ccc21`, the inhibition was 8% (BDKRB1 (Homo sapiens, UniProt P46663); cell-free assay, radioligand; 10 µM).
`CC(C)Cc1ccc(-c2nn(-c3ccc(S(C)(=O)=O)cc3)cc2C=NN=c2[nH]c(-c3ccc(Br)cc3)cs2)cc1` has an inhibition of 90.1% (PTGS1; enzyme activity; 100 µM).
The inhibition of `N#Cc1ccccc1O[C@@H]1O[C@H](CO)[C@H](O)[C@H](O)[C@H]1O` is reported as 30.4 ± 1.8% (Adhesin FmlH lectin domain; binding to desialylated mucin, ELISA competition; UPEC UTI89; 10 µM, together with: desialylated bovine submaxillary mucin).
For `CN(C)C/C=C/C(=O)Nc1ccc2nc(NCCCCCN(C)C)nc(NCCCCCCN(C)C)c2c1`, the inhibition was 52% (EZH2 (Homo sapiens, UniProt Q15910); enzyme activity, inhibitor, radiometric; 10 µM).
With `COCC(=O)N1CCc2cc(-c3csc(NC(=O)c4cc(OC)cc(OC)c4)n3)ccc21` the inhibition was 2% (PTGER4 (Homo sapiens, UniProt P35408); ligand displacement, radioligand; 10 µM).
The inhibition of `O=C(CN1CCO[C@@H](COc2cccc(Cl)c2)C1)N1CCc2ccccc21` is reported as 89.3% (HTR1A (Homo sapiens, UniProt P08908); radioligand binding; concentration not given, together with: [3H]8-OH-DPAT).
For `COc1cc(NS(=O)(=O)c2ccc3c(c2)oc(=O)n3C)cc(OC)c1OC`, the inhibition was 36.2 ± 9.9% (USP51; enzyme activity, inhibitor; 1 µM).
The inhibition of `CS(=O)(=O)c1ccc(-n2cc(C=NN=c3[nH]c(-c4ccc(Br)cc4)cs3)c(-c3ccc([N+](=O)[O-])cc3)n2)cc1` (mixture of isomers) is reported as 7.57% (PTGS1; enzyme activity; 0.1 µM).
The inhibition of `COc1ccc(-c2cnn3ccc(Nc4cc(OC)c(OC)c(OC)c4)nc23)cc1OC` is reported as 72% (crk3, with CYC6 (Leishmania mexicana, UniProt O15851); IMAP fluorescence polarisation; 30 µM, with L. major CYC6).
For `Cc1cc(C)n(Cc2ccc(O)cc2)n1`, the inhibition was less than 0% (MAL12; inhibitor; 25 µM).
With `Oc1cc2c(cc1O)C(c1cccc3ccccc13)NCC2` (stereo not drawn) the inhibition was 56.22 ± 0.56% (MAL12; enzyme activity, inhibitor; 100 µM, DMSO solvent, together with: pNPG substrate).
With `OC[C@H]1O[C@@H](Oc2ccccc2Cl)[C@H](O)[C@@H](O)[C@H]1O` the inhibition was 90.5 ± 0.6% (Adhesin FmlH lectin domain; binding to desialylated mucin, ELISA competition; UPEC UTI89; 100 µM).
`CC(C)NC(=O)[C@H](CCc1ccccc1)NC(=O)[C@H](CC(=O)NCC(C)(C)C)NC(=O)CCc1ccccc1` gave an inhibition of -18% (PLG; enzyme activity, inhibitor; 100 µM).
`COc1ccc(-c2ccc(CNCCc3ccc(S(N)(=O)=O)cc3)o2)cc1Cl` gave an inhibition of 13.3% (DRD2 (Homo sapiens, UniProt P14416); enzyme activity, inhibitor; 10 µM).
With `COc1cc(-c2cn(C)c(=O)c3cnccc23)cc(OC)c1CN(C)C` the inhibition was 3.35% (Bromodomain-containing protein 3, BD1 (BRD3, Homo sapiens, UniProt Q15059); 1 µM).
For `CC(C)Cn1c(SCC(=O)N2CCc3ccccc3C2)nc2cc(Cl)ccc2c1=O`, the inhibition was -5% (ADRA2C (Homo sapiens, UniProt P18825); ligand displacement, radioligand; 10 µM).
`O=C1c2sc(-c3ccc(N4CCC(F)C4)nc3F)nc2CCN1c1cccnc1` (stereo not drawn) has an inhibition of 2% (Glucagon receptor (GCGR, Homo sapiens, UniProt P47871); ligand displacement, radioligand; 1 µM).
`COc1cc(OC)cc(O[C@@H]2O[C@H](CO)[C@H](O)[C@H](O)[C@H]2O)c1` gave an inhibition of 11.7 ± 2.7% (Adhesin FmlH lectin domain; binding to desialylated mucin, ELISA competition; UPEC UTI89; 10 µM, together with: desialylated bovine submaxillary mucin).
`CS(=O)(=O)c1ccc(-n2cc(C=NN=c3[nH]c(-c4ccc(Br)cc4)cs3)c(-c3ccc(Br)cc3)n2)cc1` gave an inhibition of 56.1% (PTGS1; enzyme activity; 1 µM).
The inhibition of `O=C(NS(=O)(=O)c1cccs1)c1cc2ccccc2n1Cc1ccc(Br)c2ccccc12` is reported as 98.6% (SLC22A12 (Homo sapiens, UniProt Q96S37); uric acid uptake, inhibitor; HEK293 transiently expressing URAT1; 15 µM, together with: [14C]uric acid).
`COc1cc(NS(=O)(=O)c2ccc(NC(=O)c3ccccc3I)cc2)nc(OC)n1` has an inhibition of 19.6 ± 3.8% (USP51; enzyme activity, inhibitor; 1 µM).
The inhibition of `O=[N+]([O-])c1ccccc1O[C@@H]1O[C@H](COP(=O)(O)O)[C@H](O)[C@H](O)[C@H]1O` is reported as 1.3 ± 4.7% (Adhesin FmlH lectin domain; binding to desialylated mucin, ELISA competition; UPEC UTI89; 100 µM).
With `COc1ccccc1C1NCCc2cc(O)c(O)cc21` (stereo not drawn) the inhibition was 48.71 ± 0.34% (MAL12; enzyme activity, inhibitor; 100 µM, DMSO solvent, together with: pNPG substrate).
With `COc1cc(-c2cnn3c(C)c(C(=O)N4CCC(Cc5ccccc5)CC4)cnc23)cc(OC)c1OC` the inhibition was 13.9 ± 1.1% (USP51; enzyme activity, inhibitor; 1 µM).
`Cc1ccc(-c2nn(-c3ccc(S(C)(=O)=O)cc3)cc2C=NN=c2[nH]c(-c3ccc(Br)cc3)cs2)cc1` (mixture of isomers) has an inhibition of 31.5% (PTGS1; enzyme activity; 1 µM).
`CN(Cc1ccc(/C=C/C(=O)NO)cc1)CC12CC3CC(CC(C3)C1)C2` gave an inhibition of 15% (human H2 receptor; antagonist radioligand binding; 0.05 µM).
For `CCOC(=O)c1cn[nH]c1S(=O)(=O)NCc1ccc(OC)c(OC)c1`, the inhibition was 0% (USP51; enzyme activity, inhibitor; 1 µM).
For `CCn1cc(C(=O)O)c(=O)c2c(N)c(F)c(NC3CCCCC3)cc21`, the inhibition was 6.6% (VRK1 (Homo sapiens, UniProt Q99986); kinase activity; 0.1 µM, together with: ATP at Km).
`COC(=O)c1cccc(-c2ccccc2O[C@@H]2O[C@H](CO)[C@H](O)[C@H](O)[C@H]2O)c1` has an inhibition of 3.7 ± 3.5% (Adhesin FmlH lectin domain; binding to desialylated bovine submaxillary mucin, inhibitor, ELISA competition; UPEC UTI89; 1 µM).
`COc1ncc2nc(C)n(Cc3ncc(S(N)(=O)=O)cc3F)c2c1-c1ccccc1` gave an inhibition of -15.5% (HRH2 (Homo sapiens, UniProt P25021); antagonist, cell-based; 10 µM).
`Cc1cc(=O)oc2cc(O[C@@H]3O[C@H](CO)[C@H](O)[C@H](O)[C@H]3O)ccc12` gave an inhibition of 8.7 ± 3.1% (Adhesin FmlH lectin domain; binding to desialylated bovine submaxillary mucin, inhibitor, ELISA competition; UPEC UTI89; 1 µM).
`C/C=C/C(=O)Nc1ccc2nc(NCCCCCN(C)C)nc(NCCCCCCN(C)C)c2c1` gave an inhibition of 28% (KMT2C (Homo sapiens, UniProt Q8NEZ4); enzyme activity, inhibitor, radiometric; 50 µM).
With `O=C1c2sc(-c3ccc(N4CCC(CO)CC4)nc3F)nc2CCN1c1cccnc1` the inhibition was 1% (sigma receptor, non-selective (human); radioligand binding, BioPrint binding panel; 1 µM, together with: agonist radioligand).
For `Cn1cc(C(=O)N[C@@H](CCNC(=O)c2ccc([N+](=O)[O-])o2)c2nc3ccccc3[nH]2)nn1`, inhibition read “inactive” (STING1 (Homo sapiens, UniProt Q86WV6, H232R); reporter gene, inhibitor, Lucia reporter; THP1-Dual; concentration not given, wild-type STING, together with: diABZI).
For `C=CCNC(=O)[C@H](CCc1ccccc1)NC(=O)[C@H](CC(=O)NCC(C)(C)C)NC(=O)CCc1ccccc1`, the inhibition was -15% (PLG; enzyme activity, inhibitor; 100 µM).
The inhibition of `C/C1=C\CC/C(C)=C/CC(C)(C)/C=C/C1` is reported as 93 ± 3% (Trpv1 (Rattus norvegicus, UniProt O35433); ion current, inhibitor, outside-out patch clamp; 100 µM, together with: pH 5.5 activation).
For `CS(=O)(=O)c1ccc(-n2cc(C=NN=c3[nH]c(-c4ccc([N+](=O)[O-])cc4)cs3)c(-c3ccc(Br)cc3)n2)cc1`, the inhibition was 31.4% (PTGS1; enzyme activity; 1 µM).
`C[Si]1(C[C@H](CN)CC(=O)O)CCCC1` gave an inhibition of -4% (Interleukin-6 receptor subunit alpha (IL6R, Homo sapiens, UniProt P08887); binding, radioligand binding; 70 µM).
`COc1cc(-n2cc3cc(F)cc(C(N)=O)c3n2)cc(Cl)c1C1CC(O)(CCO)Cc2ccccc21` (stereo not drawn) gave an inhibition of 0.96% (PARP10 (Homo sapiens, UniProt Q53GL7); enzyme activity, inhibitor; 10 µM).
With `C[Si](C)(C)C[C@H](CN)CC(=O)O` the inhibition was -1% (HRH3 (Homo sapiens, UniProt Q9Y5N1); ligand displacement, radioligand; 250 µM).
`Cc1ccc(CN(C)C(=O)C(CCc2ccccc2)NC(=O)C(NC(=O)c2ccc(OCc3ccccc3)cc2)C(C)O)cc1` (stereo not drawn) has an inhibition of -12% (PLG; enzyme activity, inhibitor; 100 µM).
`Cc1ccc(-c2nn(-c3ccc(S(C)(=O)=O)cc3)cc2/C=N/N=C2/NC(=O)CS2)cc1` gave an inhibition of 94.7% (EGFR (Homo sapiens, UniProt P00533, L858R); kinase activity, inhibitor; 100 µM).
For `Nc1ccc(O[C@@H]2O[C@H](CO)[C@H](O)[C@H](O)[C@H]2O)cc1`, the inhibition was 9.8 ± 3.9% (Adhesin FmlH lectin domain; binding to desialylated mucin, ELISA competition; UPEC UTI89; 10 µM, together with: desialylated bovine submaxillary mucin).
`Cc1ccc(NC(=O)c2cn(CC(O)c3ccc4c(c3)OCO4)nn2)cc1` (stereo not drawn) gave an inhibition of 38.9 ± 6.1% (USP51; enzyme activity, inhibitor; 1 µM).
With `OC[C@H]1O[C@@H](SCCc2ccccc2)[C@H](O)[C@@H](O)[C@H]1O` the inhibition was 2.3 ± 2.5% (Adhesin FmlH lectin domain; binding to desialylated mucin, ELISA competition; UPEC UTI89; 10 µM, together with: desialylated bovine submaxillary mucin).
With `COc1ccc(CN2C(=O)C3CCCCC3C2=O)cc1S(=O)(=O)NCc1ccc2c(c1)OCO2` (stereo not drawn) the inhibition was 1.9 ± 0.2% (USP51; enzyme activity, inhibitor; 1 µM).

Excerpt of the above:
`C[C@H](NC(=O)[C@H](CC(=O)NCC(C)(C)C)NC(=O)C(=O)c1c[nH]c2ccccc12)C(=O)NCc1ccc(F)cc1F` gave an inhibition of 5% (PLG; enzyme activity, inhibitor; 100 µM).
`CCCc1cc(C2CCCN2C(=O)c2cc(-c3ccc(OC)c(OC)c3)on2)no1` (stereo not drawn) gave an inhibition of 26.3 ± 9.2% (USP51; enzyme activity, inhibitor; 1 µM).
